# Experimental data collected from several papers.
# Each line is one published result; not all experiments were run side by side. Numbers after ± are the reported error.
Structure (SMILES),tested on,assay,system,setting,scale,endpoint,result
NCCCn1c2ccc([N+](=O)[O-])cc2c(=O)n1Cc1ccccc1,,resazurin,"peritoneal macrophages, BALB/c mice","48 h, 10% FBS",,CC50,117 ± 5.6 µM
CCCC1OC2CC3C4CCC5=CC(=O)C=CC5(C)C4C(O)CC3(C)C2(C(=O)COC(=O)C(C)N)O1 (stereo not shown),,,rat lung homogenate,"200 µg/mL, 12 h",,hydrolysed conjugate,53.9%
Cn1c(=O)oc2ccc(-c3ccc(CC(C#N)NC(=O)C4CNCCCO4)c(F)c3)cc21 (stereo not shown),,refers to: alanine aminotransferase increased,human,"15 mg single dose, fasted",,subjects with TRAE,0%
COc1ccc(/C=C/c2ccc(-c3ccc(C)cn3)nc2)cc1,,TCSPC,DMF,,,radiative decay rate constant,0.48 ns⁻¹
CC(C)(Sc1cc[n+]([O-])cc1-c1ccc(C#N)c2ccccc12)C(=O)OC1OC(C(=O)O)C(O)C(O)C1O (stereo not shown),,,plasma,"oral, 15 mg, normal renal function, fasted",,AUC(0-inf),250 ng·h/mL
CCN(CC)CCSC(=S)N1CCN(C(=O)/C=C/c2coc3cc(OC)ccc3c2=O)CC1,tomato spotted wilt virus,"viral infection, half-leaf method",Nicotiana glutinosa,500 µg/mL,,curative effect,56.5 ± 3.9%
CC(=O)N[C@H](CCCCN)C(=O)N[C@H](CC(C)C)C(=O)N[C@H](CCCCN)C(=O)N[C@H](CO)C(=O)N[C@H](CC(C)C)C(=O)N[C@H](CC(C)C)C(=O)N[C@H](CCCCN)C(=O)N[C@@H](C(=O)N[C@H](CC(C)C)C(=O)N[C@H](CO)C(=O)N[C@H](CCCCN)C(=O)N[C@H](C)C(=O)N[C@H](CCCCN)C(=O)N[C@H](CCCCN)C(=O)N[C@H](CCCCN)C(=O)N[C@H](CC(C)C)C(=O)N[C@H](CC(C)C)C(=O)N[C@H](CCCCN)C(=O)N[C@@H](C(=O)N[C@H](C)C(=O)N[C@H](CC(C)C)C(=O)N[C@H](CCCCN)C(=O)N[C@H](C)C(=O)N[C@H](CC(C)C)C(=O)N[C@H](CO)C(=O)N[C@H](CCCCN)C(N)=O)[C@H](C)O)[C@H](C)O,,RP-HPLC temperature profiling,,"pH 2, 5-80 °C, unit not given",reference: control peptide,self-association parameter,7.4
CC1=C(/C=C/C(=O)N2CCN(C(N)=O)CC2)C(C)(C)CCC1,,,"male mice, plasma","oral, 40 mg/kg",,Cmax,19.6 nmol/g
[64Cu+2].c1ccc(CNCc2ccc(CN3CCCN4CCNCCCN(CC4)CC3)cc2)nc1,CXCR4,,"NOD/SCID mouse, U87 and U87-stb-CXCR4 xenografts, bladder","iv, 240 min, ex vivo",,tissue uptake,2.27 ± 0.23 %ID/g
COc1ccc2c(=O)c(/C=C/C(=O)N3CCN(C(=S)SCCN(C)C)CC3)coc2c1,tomato spotted wilt virus,"viral infection, half-leaf method",Nicotiana glutinosa,500 µg/mL,,inactivation effect,61.9 ± 2.5%
CC12CC(c3ccc(S(C)(=O)=O)cc3)C3=C4CCC(=O)C=C4CCC3C1CCC2(O)C(F)(F)C(F)(F)F (stereo not shown),,,"human, plasma","intravenous, 15.7 µg",,clearance,~117 mL/min
N=C(N)NCCC[C@@H]1NC(=O)[C@H](Cc2c[nH]c3ccccc23)NC(=O)[C@@H](CC2CCCCC2)NC(=O)[C@@H]2CCCN2C(=O)[C@@H](NC(=O)CCc2ccccc2)CCCNC1=O,,,"C57BL/6J mouse, plasma brain","intravenous, 1 mg/kg single dose",,MRT(0-last),0.64 h
CC[C@H](C)[C@H](NC(=O)[C@H](Cc1ccccc1)NC(=O)[C@H](CCN)NC(=O)[C@H](CCCNC(=N)N)NC(=O)[C@H](Cc1ccccc1)NC(=O)[C@H](Cc1ccccc1)NC(=O)[C@H](CCCCN)NC(=O)[C@H](CO)NC(=O)[C@H](CC(C)C)NC(=O)[C@H](CCCNC(=N)N)NC(=O)[C@H](CCSC)NC(=O)[C@H](C)N)C(=O)N[C@@H](CC(C)C)C(=O)N[C@@H](CCCCN)C(=O)N[C@@H](CCCNC(=N)N)C(=O)N[C@@H](CCCCN)C(=O)N[C@@H](CCCCN)C(=O)O,,circular dichroism,20% TFE in PBS,"200 µM, pH 7.4, 25 °C",,helicity,9%
COc1cc(NC(C)=O)c2c(c1O)-c1c(OC)c(OC)cc3c1C(C2)N(C)CC3 (stereo not shown),,,rat brain homogenate,"100 µg/mL, time not given, three freeze-thaw cycles",,remaining compound,99.3 ± 3%
CC(C)(O)c1ccc(N2Cc3c(ccnc3-c3ccc(F)cc3OCC(F)(F)F)C2=O)cc1,,,"male C57BL/6 mouse, brain","oral, 10 mg/kg, single dose",,MRT,7.3 h
O=C(CCc1ccc(CNC(C(=O)OC2CCCC2)C2CCCCC2)cn1)NO (stereo not shown),,,"human, plasma","oral, 40 mg once daily, median",reference: day 7 over day 1,accumulation ratio Cmax,1.77
CC[C@H](C)[C@H](NC(=O)[C@H](CCCCN)NC(=O)[C@H](CS)NC(=O)[C@H](CC(N)=O)NC(=O)[C@H](C)NC(=O)[C@H](CCCNC(=N)N)NC(=O)[C@H](CCCNC(=N)N)NC(=O)[C@H](CC(N)=O)NC(=O)[C@H](CCCNC(=N)N)NC(=O)[C@H](CCCNC(=N)N)NC(=O)[C@H](C)NC(=O)[C@H](CS)NC(=O)[C@H](CO)NC(=O)[C@@H](NC(=O)[C@@H](NC(=O)[C@H](CS)NC(=O)[C@H](CCCCN)NC(=O)[C@@H](N)CCCNC(=N)N)C(C)C)[C@@H](C)CC)C(=O)N[C@@H](CC(C)C)C(=O)N[C@@H](CS)C(=O)N[C@@H](CC(N)=O)C(=O)O,,LC/MS,PBS,0.1 mg/mL,reference: LC peak area,two-disulfide form,52%
CCCCCCCCCCCCCCCC(=O)N[C@@H](CCC(=O)NCCCC[C@H](NC(=O)[C@H](C)NC(=O)[C@H](C)NC(=O)[C@H](CCC(N)=O)NC(=O)CNC(=O)[C@H](CCC(=O)O)NC(=O)[C@H](CC(C)C)NC(=O)[C@H](Cc1ccc(O)cc1)NC(=O)[C@H](CO)NC(=O)[C@H](CO)NC(=O)[C@@H](NC(=O)[C@H](CC(=O)O)NC(=O)[C@H](CO)NC(=O)[C@@H](NC(=O)[C@H](Cc1ccccc1)NC(=O)[C@@H](NC(=O)CNC(=O)[C@H](CCC(=O)O)NC(=O)[C@H](C)NC(=O)[C@@H](N)Cc1cnc[nH]1)[C@@H](C)O)[C@@H](C)O)C(C)C)C(=O)N[C@@H](CCC(=O)O)C(=O)N[C@@H](Cc1ccccc1)C(=O)N[C@H](C(=O)N[C@@H](C)C(=O)N[C@@H](Cc1c[nH]c2ccccc12)C(=O)N[C@@H](CC(C)C)C(=O)N[C@H](C(=O)N[C@@H](CCCNC(=N)N)C(=O)NCC(=O)N[C@@H](CCCNC(=N)N)C(=O)NCC(=O)O)C(C)C)[C@@H](C)CC)C(=O)O,,,healthy Chinese men,"sc, dose not given",,adverse event incidence,22.4%
CN1CCC[C@]1(C)/C=C/S(=O)(=O)NC(=O)Nc1c2c(cc3c1CCC3)CCC2,,,"human, urine","oral, 250 mg single dose",,amount recovered in urine,173 mg
CC(=O)N[C@@H](CC(N)=O)C(=O)NCC(=O)N[C@@H](C)C(=O)N[C@@H](C)C(N)=O,,1H NMR,sodium phosphate buffer 50 mM,"pH 7.8, 55 °C",,half-life of Asn form,2.6 h
CCN(CC)CC#CCNc1ccnc2cc(Cl)ccc12,,,mouse hepatocytes,"10 µM, 30 min",,parent compound remaining,< 15%
CC(C)[C@H](NC(=O)[C@@H]1CCCN1C(=O)[C@H](CCCNC(=N)N)NC(=O)[C@H](CS)NC(=O)[C@H](Cc1c[nH]c2ccccc12)NC(=O)[C@H](CCCNC(=N)N)NC(=O)[C@@H](Cc1ccccc1)NC(=O)[C@H](Cc1c[nH]cn1)NC(=O)[C@H](CCC(=O)O)NC(=O)[C@H](CS)NC(=O)[C@H](CS)NC(=O)[C@@H]1CC(=O)N[C@@H](CCCNC(=N)N)C(=O)NCC(=O)N[C@@H](CC(=O)O)C(=O)N[C@H](Cc2ccc(O)cc2)C(=O)N1)C(N)=O [technetium-99m labelled],,,"C57 mouse, female, B16/F1 melanoma","intravenous, 0.037 MBq, 0.5 h",reference: tumour over muscle,tumour to tissue ratio,9.65
Cc1cc2c(cc1C1(c3ncc(C(=O)O)cn3)CC1)C(C)(C)CCC2(C)C,,,"Sprague-Dawley rat, male","oral, 100 mg/kg, 9 h, sesame oil vehicle",,blood cholesterol,68 ± 9.9 mg/dL
CC(C)(C)NCC(SS(=O)(=O)O)c1ccccc1 (stereo not shown),,,"Swiss Webster mouse, female, plasma","oral, AUC to infinity, unit not given","reference: PO over IV, dose-normalised",oral bioavailability,0.085
Cc1ccc(OCC(=O)N(Cc2cccs2)c2ccn[nH]2)cc1,,,"male Sprague-Dawley rat, plasma","oral, 10 mg/kg, single dose",,Cmax,2.62 ng/mL
CCCC[C@@H]1NC(=O)[C@@H](NC(=O)[C@H](CCC(=O)O)NC(=O)CNC(=O)CN2CCN(CC(=O)O)CCN(CC(=O)O)CCN(CC(=O)O)CC2)CCCCNC(=O)C[C@@H](C(N)=O)NC(=O)[C@H](C(C)C)NC(=O)[C@@H]2CCCN2C(=O)[C@H](CCCNC(=N)N)NC(=O)CNC(=O)[C@H](Cc2c[nH]c3ccccc23)NC(=O)[C@H](CCCNC(=N)N)NC(=O)[C@@H](Cc2ccccc2)NC(=O)[C@H](Cc2c[nH]cn2)NC(=O)[C@H](CCC(=O)O)NC1=O [gallium-67 labelled],,,C57 mice with B16/F1 melanoma,"intravenous, 0.037 MBq/mouse, 24 h",reference: tumour over liver,tumour to liver ratio,20.9
CSCOC1C(=O)C2(C)C(OCSC)CC3OCC3(OC(C)=O)C2C(OC(=O)c2ccccc2)C2(O)CC(OC(=O)C(O)C(C=C(C)C)NC(=O)OC(C)(C)C)C(C)=C1C2(C)C (stereo not shown),,,"female Sprague-Dawley rat, plasma","intravenous, 2 mg/kg",,MRT(0-t),2.8 h
N=C(N)NCCC[C@H](NC(=O)[C@H](CCCNC(=N)N)NC(=O)[C@H](CCCNC(=N)N)NC(=O)[C@H](CCCNC(=N)N)NC(=O)[C@H](CCCNC(=N)N)NC(=O)[C@H](CCCNC(=N)N)NC(=O)[C@H](CCCNC(=N)N)NC(=O)[C@H](CCCNC(=N)N)NC(=O)CN1CCN(CC(=O)O)CCN(CC(=O)O)CCN(CC(=O)O)CC1)C(=O)O,NIH/3T3 cells,refers to: Gd,,"0.10 mM, 4 h",reference: reference compounds,cellular uptake,increased
NC(=O)/C=C/c1cccc(S(=O)(=O)Nc2ccccc2)c1,,,"human, mild liver dysfunction, plasma","intravenous, 400 mg/m^2 belinostat, cycle 1 day -7, geometric mean",reference: metabolite over belinostat,Cmax metabolic ratio,0.0642
CCCC(CCC(=O)O)NC(=O)c1ccc2c(c1)OCO2 (stereo not shown),,,"female Sprague-Dawley rat, plasma","oral, 200 mg/kg of parent drug",,Tmax,1.4 h
CC(=O)N[C@H](CCNC(=O)c1cc(NC(=O)c2cc(NC(=O)c3cc(NC(=O)c4nccn4C)cn3C)cn2C)cn1C)C(=O)Nc1cn(C)c(C(=O)Nc2cc(C(=O)Nc3cc(C(=O)Nc4cc(C(=O)NCCCN(C)CCCN[14C](=O)c5cccc([14C](=O)O)c5)n(C)c4)n(C)c3)n(C)c2)n1,,,"NSG male mice, U-251 xenograft, U-251 tumour","intraperitoneal, 20 nmol per animal, 24 h",,tissue concentration,0.65 mg/kg

# A few entries again:
Structure (SMILES),tested on,assay,system,setting,scale,endpoint,result
CC(C)(C)NCC(SS(=O)(=O)O)c1ccccc1 (stereo not shown),,,"Swiss Webster mouse, female, plasma","oral, AUC to infinity, unit not given","reference: PO over IV, dose-normalised",oral bioavailability,0.085
CSCOC1C(=O)C2(C)C(OCSC)CC3OCC3(OC(C)=O)C2C(OC(=O)c2ccccc2)C2(O)CC(OC(=O)C(O)C(C=C(C)C)NC(=O)OC(C)(C)C)C(C)=C1C2(C)C (stereo not shown),,,"female Sprague-Dawley rat, plasma","intravenous, 2 mg/kg",,MRT(0-t),2.8 h
